Assay results collected from several papers.
± gives the spread as reported.

SMILES	cell line	assay	system	setting	IC50 [µM]
Nc1nnc(-c2ccccc2O)cc1N1CC2CCC(C1)N2c1ccnc(C#CCCN2CCCCCC2)c1	VCaP	cell growth or viability, ATP luminescence		7 days	0.0359
Cc1cnc(Nc2ccc3c(c2)CCN(C(=O)/C=C/C(=O)C2CCC(C)CC2)C3)nc1-c1cnn(C(C)C)c1 (stereo not drawn)	MDA-MB-157	cell growth or viability, MTT		48 h	1.34
O=C1Nc2ccccc2C12NC(c1ccc(F)cc1)C1(C(=O)Nc3ccccc31)N2Cc1ccc(F)cc1 (stereo not drawn)	B16	cell growth or viability, MTT		48 h	22.9
CC(C)c1ccc(N(C)c2ccc3c(c2)OCC[C@H]3CNc2cnccc2C(=O)O)cc1	NCI-H1836	cell growth or viability, ATP luminescence		7 days	0.00607
CCOc1cncc(-c2ccc(NC(=O)C3(c4ccnc(NS(=O)(=O)C5CC5)n4)CCOCC3)nc2)n1	renal cancer	cell viability, CellTiter-Glo	DMSO 0.1%	72 h, line code 486	0.073
CNS(=O)(=O)Nc1nccc(Cc2c(C)c3ccc(Oc4ncccc4F)cc3oc2=O)c1F	NCI-H1838	cell viability		7 days	> 1
Cn1ncc(-c2ccc3c(=O)[nH]nc(CN)c3c2)c1-c1c(F)c(Cl)cc(OC2CC2)c1C#N	Li-7	cell viability, CellTiter-Glo		120 h	0.23
Cc1nc(N(C)c2ccc3c(c2)/C(=C/c2cn(C)c4ccccc24)C(=O)N3C)c2ccccc2n1	BEAS-2B	cell growth or viability, MTT			9.12
Cc1nc(CN(C)c2ncnc3c2cnn3CCO)cs1	CHO	cytotoxicity, MTT			> 50
O=C1/C(=N\c2cccc(Cl)c2)c2ccccc2N1Cc1ccccc1	B16	cell growth or viability, MTT		48 h	0.57
[BH3-][P@+]1(c2ccccc2)CC[C@H](O)CC1	SW-620	cell growth or viability, MTT		72 h	> 100
CC(=O)Oc1ccccc1C(=O)[O][Pt]([NH2])([NH2])([Cl])([Cl])[O]C(C)=O	PSN1	cell growth or viability, MTT		72 h	0.25
OCn1cnc2ccccc21	BEAS-2B	cell growth or viability, MTT		24 h	322
Cc1ccc([N+](=O)[O-])cc1S(=O)(=O)N(C)/N=C/c1cnc2ccc(Br)cn12	OVCAR-4	cell viability, MTS			0.403
O=[P@]1(c2ccccc2)CC[C@@H](O)CC1	SW-620	cell growth or viability, MTT		72 h	> 100
CC(C)(C)c1nc(-c2cccc(NS(=O)(=O)c3c(F)cccc3F)c2F)c(-c2ccnc(N)n2)s1.Cc1[nH]c2ccccc2c1CCNCc1ccc(/C=C/C(=O)NO)cc1	A2780C/P	cell growth or viability, crystal violet		48 h	0.0169
CSCC[C@H](NC(=O)[C@@H](CO)NC(C)=O)C(=O)N[C@@H](CCCNC(=N)N)C(=O)N[C@@H](Cc1c[nH]c2ccccc12)C(=O)N[C@@H](CO)C(=O)N[C@@H](CCCNC(=N)N)C(=O)N[C@@H](CCCCN)C(=O)N[C@@H](CCSC)C(=O)N1CCC[C@H]1C(=O)N[C@@H](CS)C(=O)N[C@H](C(=O)N[C@@H](CO)C(=O)O)C(C)C	SUP-T1	Erk phosphorylation, inhibitor, phospho flow cytometry		added: CXCL12 100 ng/mL	> 100

SMILES	cell line	assay	system	setting	IC50 [µM]
COc1c(Cl)cccc1Nc1c(-c2ccncc2C#C[C@@]2(C)CCCN2C(=O)/C=C/CN(C)C)[nH]c2c1C(=O)NCC2	NCI-H2073 KI SVD	cell proliferation, CellTiter-Glo		72 h	0.00604
O=C1Nc2ccccc2C12NC(c1ccc(Cl)c(Cl)c1)C1(C(=O)Nc3ccccc31)N2Cc1ccc(Cl)c(Cl)c1 (stereo not drawn)	B16	cell growth or viability, MTT		48 h	28.9
CCn1nc(Cl)c2c1-c1cnc(N)c(c1)O[C@H](C)c1cc(F)ccc1-c1nn(C)cc1C2	NCI-H2228 (EML4-ALK variant 3)	cell viability			< 0.000645
Cc1nc(Nc2ccc3c(c2)/C(=C/c2cn(C)c4ccccc24)C(=O)N3C)c2ccccc2n1	BEAS-2B	cell growth or viability, MTT			4.78
O=C1C(Nc2ccc(Cl)cc2)c2ccccc2N1Cc1ccccc1 (stereo not drawn)	B16	cell growth or viability, MTT		48 h	45.6
C=CC(=O)N1CC2C(=O)N(CCN(C)C)c3c(c4cc(Cl)c(-c5c(O)cccc5F)nc4n(-c4c(C)ccnc4C(C)C)c3=O)N2CC1C (stereo not drawn)	NCI-H2030	cell growth or viability			3.11
COc1ccccc1/C=C1\C(=O)Nc2ccc(Nc3nc(C)nc4ccccc34)cc21	B16	cell growth or viability, MTT			0.39
C1=[N+]2CCCC[N+]3=Cc4ccc5[n]4[Au-]23[n]2c1ccc2-c1nc2ccccc2nc1-5.F[P-](F)(F)(F)(F)F	786-0 renal cancer	cell growth			4
COc1ccccc1/C=C1\C(=O)N(C)c2ccc(Nc3nc(C)nc4ccccc34)cc21	B16	cell growth or viability, MTT			4.14
COc1cc(C(=O)N/N=C/c2cccc3ccccc23)cc(OC)c1OC	697	cell viability, MTT		48 h	0.0625
CN1CCC(N[C@H]2CCc3[nH]c4c(C(N)=O)ccc(-c5ccccc5Cl)c4c3C2)CC1	MX1	cell growth or viability			1.2
CCCON(Cc1ccc(C(=O)NO)cc1)C(=O)Nc1cc(C)cc(C)c1	HAL-01 B-ALL	cell viability, CellTiter-Glo		72 h	2.52 ± 0.122
Cc1ccccc1Nc1c(-c2ccco2)nc2c(C(F)F)cccn12	UMRC2				6.8
C[n+]1c(/C=C/c2ccc(N(c3ccccc3)c3ccccc3)cc2)cc(/C=C2\Sc3ccccc3N2CCCN2CCCC2)c2ccccc21	U-87 MG	cell growth or viability, MTT		36 h	6.59
NC(=O)c1ccc(-c2ccccc2Cl)c2c3c([nH]c12)CC[C@H](N)C3	A549/DDP, cisplatin-resistant	cell growth, CellTiter-Glo		96 h	0.045
C=CC(=O)N1CCCC(n2c(=O)c3ncccc3n(Cc3ccc(Oc4ccccc4)cc3)c2=O)C1 (stereo not drawn)	Karpas-1106P	cell growth or viability, MTT		72 h	7.5
